{"data": "Experimental data from different studies", "note": "Each line is one published result; not all experiments were run side by side. “And” joins repeats or separate records; there may be more than shown. ± gives the spread as reported.", "chain of UniProt P51617 (whole entry, looked up)": "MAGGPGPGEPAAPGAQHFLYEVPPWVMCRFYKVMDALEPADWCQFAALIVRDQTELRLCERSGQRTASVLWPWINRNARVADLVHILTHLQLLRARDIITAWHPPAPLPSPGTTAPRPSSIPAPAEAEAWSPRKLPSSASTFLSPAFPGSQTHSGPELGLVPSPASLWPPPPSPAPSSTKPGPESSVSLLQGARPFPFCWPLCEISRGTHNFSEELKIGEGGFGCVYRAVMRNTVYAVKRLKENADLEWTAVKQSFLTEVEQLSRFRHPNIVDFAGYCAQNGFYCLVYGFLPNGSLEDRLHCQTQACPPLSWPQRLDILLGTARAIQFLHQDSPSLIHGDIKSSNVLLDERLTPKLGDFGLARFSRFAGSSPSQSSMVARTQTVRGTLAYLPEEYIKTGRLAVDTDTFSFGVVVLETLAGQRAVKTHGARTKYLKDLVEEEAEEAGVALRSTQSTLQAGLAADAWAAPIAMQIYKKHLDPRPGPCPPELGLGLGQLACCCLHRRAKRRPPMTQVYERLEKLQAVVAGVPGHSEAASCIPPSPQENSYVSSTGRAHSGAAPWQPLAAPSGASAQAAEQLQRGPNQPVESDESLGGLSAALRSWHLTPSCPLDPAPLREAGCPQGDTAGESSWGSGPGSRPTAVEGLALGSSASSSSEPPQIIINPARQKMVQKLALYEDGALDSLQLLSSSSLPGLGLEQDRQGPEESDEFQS"}
{"Compound": "C=C(C)C12OC3(c4ccccc4)OC1[C@@H]1[C@@H]4O[C@]4(CO)[C@@H](O)[C@]4(O)C(=O)C(C)=C[C@H]4C1(O3)[C@H](C)[C@H]2OC(=O)/C=C/C=C/C=C/CCC (stereo partly drawn)", "target or system": "MT-4", "test": "cell viability", "quantity": "IC50", "value": "8.97 ± 1.21 µM"}
{"Compound": "COC(=O)C=Cc1ccc(OC(C)=O)c(OC(C)=O)c1", "target or system": "HaCaT", "test": "MTT", "setting": "24 h, 10% FBS", "quantity": "subcytotoxic concentration", "value": "50 µM"}
{"Compound": "CN(N=O)[C@H]1CC[C@@H](c2ccc(Cl)c(Cl)c2)c2ccccc21", "target or system": "TK6 expressing CYP2B6", "test": "micronucleus induction", "setting": "24 h, without S9", "quantity": "LOAEL", "value": "< 1 µM"}
{"Compound": "C[C@@H]1CC[C@@]2(OC1)O[C@H]1[C@@H](O)[C@H]3[C@@H]4CC[C@H]5C[C@@H](O[C@@H]6O[C@H](CO)[C@H](O[C@@H]7O[C@H](CO)[C@@H](O)[C@H](O[C@@H]8OC[C@@H](O)[C@H](O)[C@H]8O)[C@H]7O[C@@H]7O[C@H](CO)[C@H](O)[C@H](O[C@@H]8O[C@H](CO)[C@@H](O)[C@H](O)[C@H]8O)[C@H]7O)[C@H](O)[C@H]6O)[C@H](O)C[C@]5(C)[C@H]4CC[C@]3(C)[C@H]1[C@@H]2C", "target or system": "HEK293", "test": "resazurin reduction", "setting": "24 h", "quantity": "LC50", "value": "9.68 µM"}
{"Compound": "CC(C)C[C@H](NC(=O)[C@H](CCCNC(=N)N)NC(=O)[C@H](CCCNC(=N)N)NC(=O)[C@H](CCCNC(=N)N)NC(=O)[C@@H]1CCCN1C(=O)[C@H](Cc1ccccc1)NC(=O)[C@H](Cc1ccc(O)cc1)NC(=O)[C@H](CCCNC(=N)N)NC(=O)[C@H](Cc1ccc(O)cc1)NC(=O)[C@@H](NC(=O)[C@H](CC(C)C)NC(=O)[C@H](Cc1ccc(O)cc1)NC(=O)[C@H](CCCNC(=N)N)NC(=O)[C@H](Cc1c[nH]cn1)NC(=O)[C@@H]1CCCN1C(=O)[C@H](Cc1c[nH]c2ccccc12)NC(=O)[C@H](Cc1ccc(O)cc1)NC(=O)[C@H](Cc1ccccc1)NC(=O)[C@@H]1CCCN1C(=O)[C@H](CCC(N)=O)NC(=O)[C@H](Cc1ccccc1)NC(=O)[C@@H]1CCCN1C(=O)[C@H](Cc1ccccc1)NC(=O)[C@H](CCCNC(=N)N)NC(=O)[C@H](Cc1c[nH]cn1)NC(=O)[C@H](CC(N)=O)NC(=O)[C@H](CS)NC(=O)[C@H](CCCNC(=N)N)NC(=O)[C@H](CO)NC(=O)[C@@H]1CCCN1C(=O)[C@@H](NC(=O)[C@H](Cc1ccccc1)NC(=O)[C@@H]1CCCN1C(=O)[C@@H](N)CCCNC(=N)N)C(C)C)[C@@H](C)O)C(=O)N[C@@H](CCC(N)=O)C(=O)N[C@@H](CCCNC(=N)N)C(=O)O", "target or system": "HaCaT", "test": "cell viability, MTT", "quantity": "CC50", "value": "69.4 µM"}
{"Compound": "Cc1cccc(C)c1N(Cn1cccn1)C(=O)CCl", "target or system": "MCF7 AREc32 cells", "test": "cell confluency, IncuCyte imaging", "setting": "24 h, nominal concentration", "quantity": "IC10", "value": "254 µM"}
{"Compound": "N#C[C@H](C[C@@H]1CCCNC1=O)NC(=O)[C@H](CC1CC1)NC(=O)c1cc2cccc(Cl)c2[nH]1", "target or system": "cryopreserved human hepatocytes", "test": "measured: CYP2C8", "setting": "10 µM, 72 h", "scale": "baseline: vehicle", "quantity": "mRNA level", "value": "≤ 4.7 fold"}
{"Compound": "Cc1cc2c(c(O)c1O)C(=O)c1c(O)cc(O)cc1C2=O", "target or system": "HepaRG co-cultured with HK-2", "test": "MTT", "setting": "33.33 µM, 24 h", "scale": "baseline: untreated control", "quantity": "cell viability", "value": "51.8 ± 7.56%"}
{"Compound": "O=S(=O)(O)C(F)(F)C(F)(F)C(F)(F)C(F)(F)C(F)(F)C(F)(F)C(F)(F)C(F)(F)F", "target or system": "hTERT-RPTEC-OAT1", "setting": "concentration not given, Transwell, basolateral-to-apical addition", "quantity": "LDH release", "value": "64.9 mU/mL and 16.8 mU/mL and 11.7 mU/mL and 58.6 mU/mL"}
{"Compound": "CC(=O)OC[C@H]1O[C@@H](Oc2cc(O)cc3cc4oc(C)cc(=O)c4c(O)c23)[C@H](O)[C@@H](O)[C@@H]1O", "target or system": "HepaRG co-cultured with HK-2", "test": "MTT", "setting": "133.33 µM, 48 h", "scale": "baseline: untreated control", "quantity": "cell viability", "value": "66.9 ± 19.8%"}
{"Compound": "C[C@@H](O)[C@H](NC(=O)CNC(=O)CNC(=O)CNC(=O)c1ccc2c(c1)C(=O)OC21c2ccc(O)cc2Oc2cc(O)ccc21)C(=O)N[C@@H](Cc1ccccc1)C(=O)N[C@@H](Cc1ccccc1)C(=O)N[C@@H](Cc1ccc(O)cc1)C(=O)NCC(=O)NCC(=O)N[C@@H](CO)C(=O)N[C@@H](CCCNC(=N)N)C(=O)NCC(=O)N[C@@H](CCCCN)C(=O)N[C@@H](CCCNC(=N)N)C(=O)N[C@@H](CC(N)=O)C(=O)N[C@@H](CC(N)=O)C(=O)N[C@@H](Cc1ccccc1)C(=O)N[C@@H](CCCCN)C(=O)N[C@H](C(=O)N[C@@H](CCC(=O)O)C(=O)N[C@@H](CCC(=O)O)C(=O)N[C@@H](Cc1ccc(O)cc1)C(N)=O)[C@@H](C)O", "target or system": "hCMEC/D3 monolayers", "test": "BBB permeability, Transwell, measured: CF-labelled compound", "system": "EGM-2 medium", "setting": "concentration not given, 3 h, apical to basal", "scale": "baseline: fluorescence added apically", "quantity": "transport ratio", "value": "15.3%"}
{"Compound": "Cc1cc(C(C)(C)c2ccc(O)c(C)c2)ccc1O", "target or system": "HepG2 spheroids", "test": "annexin V-FITC/PI flow cytometry", "setting": "0.1 µM, 24 h", "quantity": "necrotic cells", "value": "6.4 ± 2.12%"}
{"Compound": "Nc1nc2nc[nH]c2c(=S)[nH]1", "target or system": "MRC-5, mock-infected", "test": "nuclei count", "setting": "96 h", "quantity": "LD50", "value": "25.8 µM"}
{"Compound": "CC[C@@H](C)[C@H]1O[C@@H](c2c(O)c(-c3ccccc3)cn(OC)c2=O)[C@H](C)C[C@@H]1C", "target or system": "KB", "test": "cytotoxicity, neutral red uptake", "setting": "48 h", "quantity": "IC50", "value": "> 10 µg/mL"}
{"Compound": "C[C@H]1CN(c2n[nH]c3nc(N[C@H]4CC[C@H](NS(=O)(=O)CCC(F)(F)F)CC4)ncc23)CCO1", "target or system": "IRAK1 (Homo sapiens, UniProt P51617)", "test": "inhibitor, Kinobeads competition profiling", "setting": "0.032 µM", "scale": "baseline: vehicle", "quantity": "relative abundance", "value": 1.03}
{"Compound": "O=S(=O)(c1ccc(O)cc1)c1ccc(O)cc1", "target or system": "HepG2 spheroids, dissociated", "test": "annexin V-FITC/PI flow cytometry", "setting": "0.10 µM, 96 h", "quantity": "early apoptotic cells", "value": "6.41 ± 5.28%"}
{"Compound": "O=C1c2ccccc2C(=O)c2ccccc21", "target or system": "HK-2 co-cultured with HepaRG", "test": "MTT", "setting": "16.67 µM, 48 h", "scale": "baseline: untreated control", "quantity": "viability", "value": "62.9 ± 1.81%"}
{"Compound": "O=C(O)C(F)(F)C(F)(F)C(F)(F)C(F)(F)C(F)(F)C(F)(F)C(F)(F)C(F)(F)C(F)(F)C(F)(F)F", "target or system": "hTERT-RPTEC-OAT1", "setting": "concentration not given, 96-well plate", "quantity": "LDH release", "value": "3.2 mU/mL and 4.62 mU/mL and 3.86 mU/mL and 4.08 mU/mL"}
{"Compound": "CCCCCCCC(=O)NCC(=O)N[C@@H](Cc1ccccc1)C(=O)N[C@H](C=O)Cc1c[nH]cn1", "target or system": "HEL", "test": "cell morphology", "quantity": "minimum cytotoxic concentration", "value": "> 100 µM"}
{"Compound": "CC[C@H](C)[C@H](NC(=O)[C@H](C)NC(=O)[C@H](CCCNC(=N)N)NC(=O)[C@H](CCCNC(=N)N)NC(=O)[C@@H](NC(=O)[C@H](CO)NC(=O)[C@H](CC(N)=O)NC(=O)[C@@H](NC(=O)[C@H](Cc1ccccc1)NC(=O)[C@H](CO)NC(=O)[C@H](CCCCN)NC(=O)[C@@H](NC(=O)[C@H](Cc1ccccc1)NC(=O)[C@H](CCCCN)NC(=O)[C@@H](N)C(C)C)C(C)C)[C@@H](C)CC)[C@@H](C)CC)C(=O)N[C@@H](CC(N)=O)C(=O)N[C@@H](CCCCN)C(=O)N[C@@H](Cc1ccc(O)cc1)C(=O)N1CCC[C@H]1C(=O)N1CCC[C@H]1C(=O)N[C@H](C(=O)N[C@@H](CC(N)=O)C(=O)N[C@@H](CC(C)C)C(=O)N[C@@H](CCCCN)C(=O)N[C@H](C(=O)N[C@@H](CCCCN)C(=O)N[C@@H](CS)C(=O)N[C@@H](CC(N)=O)C(=O)N[C@@H](CCCNC(=N)N)C(=O)N[C@@H](CC(C)C)C(=O)N[C@@H](CC(N)=O)C(=O)N[C@@H](CO)C(=O)N[C@H](C(=O)N[C@@H](CC(=O)O)C(=O)N1CCC[C@H]1C(=O)N[C@@H](CCCCN)C(=O)N[C@@H](CCC(N)=O)C(=O)N1CCC[C@H]1C(=O)N1CCC[C@H]1C(=O)N[C@@H](CCCNC(=N)N)C(=O)N1CCC[C@H]1C(=O)N[C@@H](Cc1ccccc1)C(=O)N[C@@H](CCCNC(=N)N)C(=O)N[C@@H](CO)C(=O)N[C@@H](Cc1ccccc1)C(=O)N[C@H](C(=O)O)C(C)C)[C@@H](C)CC)[C@@H](C)CC)[C@@H](C)CC", "target or system": "HaCaT", "test": "cell viability, MTT", "quantity": "CC50", "value": "34.8 µM"}
{"Compound": "CC1=C(O)C(=O)C=C2C1=CC=C1[C@@]2(C)CC[C@@]2(C)[C@@H]3C[C@](C)(C(=O)O)CC[C@]3(C)CC[C@]12C", "target or system": "COS-7", "test": "WST-8", "setting": "10 µM, 24 h, 0.1% DMSO, unit not given", "scale": "baseline: vehicle control", "quantity": "metabolic activity", "value": "0.6 ± 0.44"}
{"Compound": "Oc1ccc(C(c2ccc(O)cc2)(C(F)(F)F)C(F)(F)F)cc1", "target or system": "HepG2 spheroids", "test": "annexin V-FITC/PI flow cytometry", "setting": "10 µM, 24 h", "quantity": "necrotic cells", "value": "8.06 ± 3.25%"}
{"Compound": "O=c1[nH]c(=O)n([C@H]2C[C@H](O)[C@@H](CO)O2)cc1/C=C/Br", "target or system": "HEL", "test": "cell morphology", "quantity": "minimal cytotoxic concentration", "value": "> 250 µM"}
{"Compound": "O=c1ccc2ccccc2o1", "target or system": "NHEK", "test": "cell count", "setting": "concentration not given, 6 h, apoptosis, necrosis, cell cycle panel", "quantity": "chance response", "value": "0.01%"}
{"Compound": "COc1ccc2c(c1OC)C(=O)c1c(cc(C)c(O)c1OC)C2=O", "target or system": "HepaRG co-cultured with HK-2", "test": "MTT", "setting": "33.33 µM, 48 h", "scale": "baseline: untreated control", "quantity": "cell viability", "value": "85.7 ± 5.06%"}
{"Compound": "CC[C@H](C)[C@H](NC(=O)[C@H](C)NC(=O)[C@H](Cc1c[nH]cn1)NC(=O)CNC(=O)CNC(=O)CNC(=O)c1ccc2c(c1)C(=O)OC21c2ccc(O)cc2Oc2cc(O)ccc21)C(=O)N[C@@H](Cc1ccc(O)cc1)C(=O)N1CCC[C@H]1C(=O)N[C@@H](CCCNC(=N)N)C(=O)N[C@@H](Cc1c[nH]cn1)C(N)=O", "target or system": "hCMEC/D3 monolayers", "test": "BBB permeability, Transwell, measured: CF-labelled compound", "system": "EGM-2 medium", "setting": "concentration not given, 3 h, apical to basal", "scale": "baseline: fluorescence added apically", "quantity": "transport ratio", "value": "12.9%"}
{"Compound": "O=C(O)C(F)(F)C(F)(F)C(F)(F)F", "target or system": "hTERT-RPTEC-OAT1", "setting": "concentration not given, Transwell, apical-to-basolateral addition", "quantity": "LDH release", "value": "12.3 mU/mL and 13.1 mU/mL and 10.1 mU/mL and 11.5 mU/mL"}
{"note": "For quick reference, copied from above:"}
{"Compound": "N#C[C@H](C[C@@H]1CCCNC1=O)NC(=O)[C@H](CC1CC1)NC(=O)c1cc2cccc(Cl)c2[nH]1", "target or system": "cryopreserved human hepatocytes", "test": "measured: CYP2C8", "setting": "10 µM, 72 h", "scale": "baseline: vehicle", "quantity": "mRNA level", "value": "≤ 4.7 fold"}
